Measurements gathered from unrelated publications.
Protocols differ between the studies behind these lines. Numbers after ± are the reported error.
NPR2: Atrial natriuretic peptide receptor 2 (NPR2, Homo sapiens, UniProt P20594)
UniProt P20594, sequence (whole entry, looked up): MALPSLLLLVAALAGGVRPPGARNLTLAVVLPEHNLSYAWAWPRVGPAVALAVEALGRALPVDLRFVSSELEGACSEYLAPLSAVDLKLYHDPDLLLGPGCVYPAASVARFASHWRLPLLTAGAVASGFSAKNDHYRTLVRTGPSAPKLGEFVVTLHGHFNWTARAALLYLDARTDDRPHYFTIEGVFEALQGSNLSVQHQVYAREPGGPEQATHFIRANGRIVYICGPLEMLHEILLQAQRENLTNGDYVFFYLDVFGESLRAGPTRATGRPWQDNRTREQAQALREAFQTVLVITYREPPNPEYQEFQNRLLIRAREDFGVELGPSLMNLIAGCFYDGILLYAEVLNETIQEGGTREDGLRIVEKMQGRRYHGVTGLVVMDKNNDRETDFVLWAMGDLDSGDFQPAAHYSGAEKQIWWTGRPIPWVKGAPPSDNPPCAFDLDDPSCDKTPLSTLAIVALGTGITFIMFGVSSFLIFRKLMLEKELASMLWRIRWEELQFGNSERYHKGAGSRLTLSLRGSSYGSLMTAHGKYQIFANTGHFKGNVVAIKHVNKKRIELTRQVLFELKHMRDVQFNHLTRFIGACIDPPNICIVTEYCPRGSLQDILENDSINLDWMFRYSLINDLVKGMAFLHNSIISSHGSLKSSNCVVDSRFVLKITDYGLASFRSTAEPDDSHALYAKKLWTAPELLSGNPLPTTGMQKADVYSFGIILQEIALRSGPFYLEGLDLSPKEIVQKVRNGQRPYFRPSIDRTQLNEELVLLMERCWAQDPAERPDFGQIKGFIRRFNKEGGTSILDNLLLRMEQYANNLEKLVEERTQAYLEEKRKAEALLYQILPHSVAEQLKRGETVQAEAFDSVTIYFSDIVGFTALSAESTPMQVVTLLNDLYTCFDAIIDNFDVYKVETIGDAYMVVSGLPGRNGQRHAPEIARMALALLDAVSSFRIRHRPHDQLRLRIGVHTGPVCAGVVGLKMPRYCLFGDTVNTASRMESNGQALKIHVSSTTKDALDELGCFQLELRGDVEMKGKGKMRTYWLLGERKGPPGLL
S1PR2: Sphingosine 1-phosphate receptor 2 (S1PR2, Homo sapiens, UniProt O95136)
UniProt O95136, sequence (whole entry, looked up): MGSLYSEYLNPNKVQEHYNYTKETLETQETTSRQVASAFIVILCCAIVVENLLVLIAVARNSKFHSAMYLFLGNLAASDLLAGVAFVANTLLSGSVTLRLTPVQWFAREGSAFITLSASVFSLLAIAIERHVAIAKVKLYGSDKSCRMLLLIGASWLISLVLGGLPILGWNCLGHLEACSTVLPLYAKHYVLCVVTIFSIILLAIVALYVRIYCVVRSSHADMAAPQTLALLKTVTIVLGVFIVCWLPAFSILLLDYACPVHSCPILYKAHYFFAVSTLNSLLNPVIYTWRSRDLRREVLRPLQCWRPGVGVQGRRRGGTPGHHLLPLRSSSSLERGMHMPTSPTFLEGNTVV
Methoprene-tolerant protein with Taiman: Methoprene-tolerant protein, with Taiman (Drosophila melanogaster, UniProt O44118)
UniProt P43088, sequence (whole entry, looked up): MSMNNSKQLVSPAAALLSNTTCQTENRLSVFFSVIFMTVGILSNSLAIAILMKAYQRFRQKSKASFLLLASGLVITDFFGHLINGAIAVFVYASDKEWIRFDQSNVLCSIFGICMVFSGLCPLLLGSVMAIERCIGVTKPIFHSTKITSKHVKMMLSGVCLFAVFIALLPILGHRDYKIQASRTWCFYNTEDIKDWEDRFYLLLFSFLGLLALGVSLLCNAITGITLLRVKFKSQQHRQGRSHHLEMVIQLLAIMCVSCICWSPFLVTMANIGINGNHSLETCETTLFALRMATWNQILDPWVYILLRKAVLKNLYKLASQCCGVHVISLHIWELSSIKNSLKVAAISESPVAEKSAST
UniProt P33032, sequence (whole entry, looked up): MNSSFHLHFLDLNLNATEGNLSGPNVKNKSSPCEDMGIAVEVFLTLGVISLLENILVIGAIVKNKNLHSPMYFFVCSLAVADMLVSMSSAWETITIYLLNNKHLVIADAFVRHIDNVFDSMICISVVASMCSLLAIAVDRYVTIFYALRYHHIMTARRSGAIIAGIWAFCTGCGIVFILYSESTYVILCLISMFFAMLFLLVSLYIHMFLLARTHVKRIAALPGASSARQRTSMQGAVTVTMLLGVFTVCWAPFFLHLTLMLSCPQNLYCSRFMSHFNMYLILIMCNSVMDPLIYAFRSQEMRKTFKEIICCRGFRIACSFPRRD
UniProt P62813, sequence (whole entry, looked up): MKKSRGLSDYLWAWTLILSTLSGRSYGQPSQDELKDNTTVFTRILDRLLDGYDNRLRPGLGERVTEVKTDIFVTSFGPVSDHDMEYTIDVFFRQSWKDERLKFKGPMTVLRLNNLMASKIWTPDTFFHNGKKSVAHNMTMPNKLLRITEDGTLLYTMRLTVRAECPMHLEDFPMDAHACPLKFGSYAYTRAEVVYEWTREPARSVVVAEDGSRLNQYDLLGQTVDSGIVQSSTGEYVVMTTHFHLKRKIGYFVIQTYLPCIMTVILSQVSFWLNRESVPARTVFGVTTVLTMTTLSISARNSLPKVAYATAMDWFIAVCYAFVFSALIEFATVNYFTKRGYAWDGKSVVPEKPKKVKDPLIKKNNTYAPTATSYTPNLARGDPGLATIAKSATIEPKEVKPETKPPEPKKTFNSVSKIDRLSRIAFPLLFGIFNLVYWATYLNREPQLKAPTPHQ
UniProt P15431, sequence (whole entry, looked up): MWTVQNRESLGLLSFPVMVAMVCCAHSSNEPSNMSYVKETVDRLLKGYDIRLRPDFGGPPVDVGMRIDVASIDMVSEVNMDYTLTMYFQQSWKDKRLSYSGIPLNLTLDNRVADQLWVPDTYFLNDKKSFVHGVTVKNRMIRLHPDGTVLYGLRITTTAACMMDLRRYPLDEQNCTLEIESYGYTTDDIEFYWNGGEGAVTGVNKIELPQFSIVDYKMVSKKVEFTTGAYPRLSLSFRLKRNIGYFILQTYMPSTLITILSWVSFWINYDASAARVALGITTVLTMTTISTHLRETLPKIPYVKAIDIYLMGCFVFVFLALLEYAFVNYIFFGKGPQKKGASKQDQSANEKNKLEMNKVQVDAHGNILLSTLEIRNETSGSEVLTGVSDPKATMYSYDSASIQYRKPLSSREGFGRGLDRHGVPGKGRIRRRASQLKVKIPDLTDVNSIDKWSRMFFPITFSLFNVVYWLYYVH
UniProt O75762, sequence (whole entry, looked up): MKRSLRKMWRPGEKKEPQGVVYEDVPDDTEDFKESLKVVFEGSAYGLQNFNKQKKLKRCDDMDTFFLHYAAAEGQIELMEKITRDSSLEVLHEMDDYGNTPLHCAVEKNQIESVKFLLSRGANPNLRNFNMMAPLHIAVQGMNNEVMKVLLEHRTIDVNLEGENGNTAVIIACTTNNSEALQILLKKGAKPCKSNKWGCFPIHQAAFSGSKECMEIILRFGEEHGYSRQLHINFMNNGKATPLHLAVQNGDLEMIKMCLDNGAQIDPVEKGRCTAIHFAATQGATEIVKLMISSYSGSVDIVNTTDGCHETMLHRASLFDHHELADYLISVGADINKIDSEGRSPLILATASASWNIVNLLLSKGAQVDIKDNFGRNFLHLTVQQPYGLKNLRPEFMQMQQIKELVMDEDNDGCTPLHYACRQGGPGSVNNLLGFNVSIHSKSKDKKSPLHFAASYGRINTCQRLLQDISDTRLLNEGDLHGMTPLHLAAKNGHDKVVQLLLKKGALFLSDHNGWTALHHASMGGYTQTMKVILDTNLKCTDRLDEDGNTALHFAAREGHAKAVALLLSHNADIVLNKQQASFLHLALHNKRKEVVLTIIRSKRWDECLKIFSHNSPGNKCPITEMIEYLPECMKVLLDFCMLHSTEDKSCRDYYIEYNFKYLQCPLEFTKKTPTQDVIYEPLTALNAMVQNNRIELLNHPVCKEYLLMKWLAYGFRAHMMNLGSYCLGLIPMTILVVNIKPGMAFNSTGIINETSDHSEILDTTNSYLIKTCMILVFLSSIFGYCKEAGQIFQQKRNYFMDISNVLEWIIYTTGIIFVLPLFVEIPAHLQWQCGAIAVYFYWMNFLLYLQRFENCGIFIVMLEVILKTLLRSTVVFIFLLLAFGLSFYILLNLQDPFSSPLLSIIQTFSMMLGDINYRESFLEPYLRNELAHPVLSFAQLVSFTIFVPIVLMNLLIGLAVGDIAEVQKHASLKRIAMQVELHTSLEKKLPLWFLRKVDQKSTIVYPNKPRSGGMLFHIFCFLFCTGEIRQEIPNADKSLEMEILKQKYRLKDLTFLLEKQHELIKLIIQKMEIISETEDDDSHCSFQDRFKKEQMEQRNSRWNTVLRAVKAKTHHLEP
UniProt Q9NSD7, sequence (whole entry, looked up): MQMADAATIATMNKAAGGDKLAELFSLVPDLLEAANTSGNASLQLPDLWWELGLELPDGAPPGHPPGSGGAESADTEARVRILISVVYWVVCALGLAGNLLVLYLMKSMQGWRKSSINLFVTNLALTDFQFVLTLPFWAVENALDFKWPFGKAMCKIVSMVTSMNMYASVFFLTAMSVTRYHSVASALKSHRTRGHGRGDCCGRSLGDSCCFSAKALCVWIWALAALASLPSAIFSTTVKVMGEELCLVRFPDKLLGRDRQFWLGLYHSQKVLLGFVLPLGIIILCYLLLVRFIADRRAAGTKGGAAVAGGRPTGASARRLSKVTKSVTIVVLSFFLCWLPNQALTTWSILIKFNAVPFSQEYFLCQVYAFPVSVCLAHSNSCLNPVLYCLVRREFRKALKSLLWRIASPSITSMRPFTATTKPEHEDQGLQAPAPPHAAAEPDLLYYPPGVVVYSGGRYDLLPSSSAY
UniProt P35414, sequence (whole entry, looked up): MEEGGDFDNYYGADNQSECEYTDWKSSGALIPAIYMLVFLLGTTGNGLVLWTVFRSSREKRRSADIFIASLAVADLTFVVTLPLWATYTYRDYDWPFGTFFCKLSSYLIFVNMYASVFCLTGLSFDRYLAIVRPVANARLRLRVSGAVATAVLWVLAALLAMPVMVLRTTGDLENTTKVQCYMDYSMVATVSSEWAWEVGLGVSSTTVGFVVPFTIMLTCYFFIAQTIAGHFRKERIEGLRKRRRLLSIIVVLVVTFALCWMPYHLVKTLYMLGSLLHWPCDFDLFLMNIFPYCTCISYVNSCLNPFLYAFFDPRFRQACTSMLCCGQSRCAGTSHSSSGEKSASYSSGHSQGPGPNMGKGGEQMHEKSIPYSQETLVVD

For `N#CCCN1CCN(C(=S)c2ccc(-c3ccccc3)o2)CC1`, the EC50 was 6.41 µM (NPR2; cGMP production, positive allosteric modulator, cGMP HTRF; HEK293 expressing human GC-B; together with: CNP at EC30).
With `CC[C@H]1O[C@H]1C/C=C\C/C=C\C/C=C\C/C=C\C/C=C\CCC(=O)O` the EC50 was 31.4 µM (Transient receptor potential cation channel subfamily A member 1 (TRPA1, Homo sapiens, UniProt O75762); calcium signal, agonist, fluorescence).
`N#CCCN1CCN(C(=S)c2ccc(-c3ccc(F)cc3)o2)CC1` has an EC50 of 4.3 µM (NPR2; cGMP production, positive allosteric modulator, cGMP HTRF; HEK293 expressing human GC-B; together with: CNP at EC30).
`CSCC[C@H](NC(=O)[C@@H]1CCCN1C(=O)CNC(=O)[C@H](CCCCN)NC(=O)[C@H](Cc1c[nH]cn1)NC(=O)[C@H](CO)NC(=O)[C@H](CC(C)C)NC(=O)[C@H](CCCNC(=N)N)NC(=O)[C@@H]1CCCN1C(=O)[C@H](CCCNC(=N)N)NC(=O)[C@H](CCC(N)=O)NC(=O)[C@H](CCCNC(=N)N)NC(=O)[C@H](CCCNC(=N)N)NC(=O)[C@H](Cc1ccccc1)NC(=O)[C@H](CCCCN)NC(=O)[C@H](CCCNC(=N)N)NC(=O)[C@H](CCCNC(=N)N)NC(=O)CNC(=O)CNC(=O)[C@H](CCC(N)=O)NC(=O)[C@H](Cc1c[nH]c2ccccc12)NC(=O)[C@@H]1CCCN1C(=O)CNC(=O)[C@@H]1CCCN1C(=O)CNC(=O)[C@H](CC(N)=O)NC(=O)[C@H](CCCNC(=N)N)NC(=O)[C@H](CO)NC(=O)CNC(=O)[C@H](CCCNC(=N)N)NC(=O)[C@@H]1CCCN1C(=O)[C@H](CCC(N)=O)NC(=O)[C@@H](NC(=O)[C@@H](N)CC(C)C)C(C)C)C(=O)N1CCC[C@H]1C(=O)N[C@@H](Cc1ccccc1)C(=O)O` has an EC50 of 0.00454 ± 0.00052 µM (Apelin receptor (APLNR, Homo sapiens, UniProt P35414); β-arrestin-1 recruitment, agonist, BRET; HEK293; 15 min).
With `S=C(Nc1ccc(Cl)cc1)Nc1cccc2[nH]ccc12` the EC50 was 29.8 ± 3.7 µM (Alpha-synuclein (SNCA, Homo sapiens, UniProt P37840); fibril formation, inhibitor, thioflavin T fluorescence; together with: SNCA 6 µM).
With `Cc1cc(C(=O)CN2C(=O)CCC2=O)c(C)n1Cc1ccccc1` the EC50 was 1 µM (S1PR2; reporter gene, agonist).
With `N=C(N)NCCC[C@H](NC(=O)[C@H](CC(=O)O)NC(=O)[C@@H]1CSCC(=O)NCC(=O)N[C@@H](Cc2c[nH]cn2)C(=O)N[C@H](Cc2ccccc2)C(=O)N[C@@H](CCCNC(=N)N)C(=O)N[C@@H](Cc2c[nH]c3ccccc23)C(=O)N1)C(=O)N[C@@H](Cc1ccccc1)C(=O)NCC(N)=O` the EC50 was 0.086 µM (Melanocortin receptor 5 (MC5R, Homo sapiens, UniProt P33032); cAMP, agonist).
With `COc1ccc(C2CC2/C(C)=N/OC(=O)c2ccc(F)cc2)cc1` (stereo not drawn) the EC50 was greater than 100 µM (Methoprene-tolerant protein with Taiman; reporter gene, agonist; HEK293T expressing Drosophila Met/Tai; 24 h).
The EC50 of `CC[C@H](C)[C@H](NC(=O)CNC(=O)[C@H](CC(=O)O)NC(=O)[C@H](CO)NC(=O)C=Cc1c[nH]cn1)C(=O)N[C@@H](Cc1ccccc1)C(=O)N[C@H](C(=O)N[C@@H](CC(=O)O)C(=O)N[C@@H](CO)C(=O)N[C@@H](Cc1ccc(O)cc1)C(=O)N[C@@H](CO)C(=O)N[C@@H](CCCNC(=N)N)C(=O)N[C@@H](Cc1ccc(O)cc1)C(=O)N[C@@H](CCCNC(=N)N)C(=O)N[C@@H](CCCCN)C(=O)N[C@@H](CCC(N)=O)C(=O)N[C@@H](CCSC)C(=O)N[C@@H](C)C(=O)N[C@H](C(=O)N[C@@H](CCCCN)C(=O)N[C@@H](CCCCN)C(=O)N[C@@H](C)C(=O)N[C@@H](CC(C)C)C(=O)N[C@@H](C)C(=O)N[C@@H](C)C(=O)N[C@H](C(=O)N[C@@H](CC(C)C)C(=O)NCC(=O)N[C@@H](CCCCN)C(=O)N[C@@H](CCCNC(=N)N)C(=O)N[C@@H](Cc1ccc(O)cc1)C(=O)N[C@@H](CCCCN)C(=O)N[C@@H](CCC(N)=O)C(=O)N[C@@H](CCCNC(=N)N)C(=O)N[C@H](C(=O)N[C@@H](CCCCN)C(=O)N[C@@H](CC(N)=O)C(=O)N[C@@H](CCCCN)C(N)=O)C(C)C)C(C)C)C(C)C)[C@@H](C)O` is reported as greater than 1 µM (Vasoactive intestinal polypeptide receptor 2 (VIPR2, Homo sapiens, UniProt P41587); cAMP production, agonist; PANC-1 transfected with receptor).
With `N#CCCN1CCN(C(=O)c2ccc(-c3cc(Cl)ccc3Cl)o2)CC1` the EC50 was greater than 10 µM (NPR2; cGMP production, positive allosteric modulator, cGMP HTRF; HEK293 expressing human GC-B; together with: CNP at EC30).
For `Cc1ccc2nc(-c3ccc(NC(=O)C(F)(F)C4(F)OC(F)(F)C(F)(F)C4(F)F)cc3)sc2c1` (stereo not drawn), the EC50 was greater than 100 µM (Methoprene-tolerant protein with Taiman; reporter gene, agonist; HEK293T expressing Drosophila Met/Tai; 24 h).
`N#CCC(=O)N1CCN(C(=S)c2ccc(-c3cc(Cl)ccc3Cl)o2)CC1` has an EC50 of 1.99 µM (NPR2; cGMP production, positive allosteric modulator, cGMP HTRF; HEK293 expressing human GC-B; together with: CNP at EC30).
`O=C(O)/C=C/c1cccc(NC(=O)c2cc(-c3ccc(F)cc3)ccc2F)c1` has an EC50 of greater than 10 µM (Prostaglandin F2-alpha receptor (PTGFR, Homo sapiens, UniProt P43088); calcium signal, agonist, fluorescence).
For `CCc1nc(-c2ccc(-c3ccc(CCC(N)(CO)COP(=O)(O)O)cc3)cc2)co1` (stereo not drawn), the EC50 was greater than 5 µM (S1PR2; β-arrestin recruitment, agonist).
With `N#CCCN1CCN(C(=S)c2ccc(-c3cccc(C(F)(F)F)c3)o2)CC1` the EC50 was 1.53 µM (NPR2; cGMP production, positive allosteric modulator, cGMP HTRF; HEK293 expressing human GC-B; together with: CNP at EC30).
`CC[C@H](C)[C@@H]1NC(=O)[C@H](Cc2ccccc2)NC(=O)[C@H](CCC(=O)O)NC(=O)[C@H](CCCNC(=N)N)NC(=O)CNC(=O)[C@@H](NC(=O)[C@H](CC(C)C)NC(=O)[C@H](CCCNC(=N)N)NC(=O)[C@@H](NC(=O)CNC(=O)[C@H](Cc2ccc(O)cc2)NC(=O)[C@@H]2CCCN2C(=O)[C@H](C)NC(=O)[C@H](C)NC(=O)[C@@H](N)CCCNC(=N)N)C(C)C)CSSC[C@@H]2NC(=O)[C@@H](NC(=O)[C@H](CO)NC(=O)[C@H](CO)NC(=O)[C@H](CO)NC(=O)[C@H](CC(C)C)NC(=O)CNC(=O)[C@H](C)NC(=O)[C@H](CC(C)C)NC(=O)[C@@H](NC(=O)[C@@H](N)CC(=O)O)C(C)C)CSSC[C@H](NC(=O)CNC(=O)[C@H](Cc3c[nH]c4ccccc34)NC(=O)[C@H](CCCCN)NC2=O)C(=O)N[C@@H](CO)C(=O)N[C@@H](CCCCN)C(=O)N[C@@H](CO)C(=O)N[C@@H](CCC(=O)O)C(=O)N[C@@H]([C@@H](C)CC)C(=O)N[C@@H](CO)C(=O)N[C@@H](CO)C(=O)N[C@@H](CC(C)C)C(=O)N[C@H](C(=O)O)CSSC[C@@H](C(=O)NCC(=O)NCC(=O)N[C@@H](CO)C(=O)N[C@@H](CCCNC(=N)N)C(=O)N[C@@H](Cc2c[nH]c3ccccc23)C(=O)O)NC(=O)[C@H]([C@@H](C)O)NC(=O)[C@H](Cc2ccccc2)NC(=O)[C@H]([C@@H](C)CC)NC(=O)[C@H](C(C)C)NC(=O)[C@H](C)NC(=O)[C@H](CCCNC(=N)N)NC1=O` has an EC50 of 0.00052 µM (Relaxin-3 receptor 1 (RXFP3, Homo sapiens, UniProt Q9NSD7); cAMP, agonist).
With `CC(C)CN(CC(C)C)C(=O)/C=C/C=C/c1ccc2c(c1)OCO2` the EC50 was 13.3 ± 2.9 µM (Gabrb1/Gabra1 (Rattus norvegicus, UniProt P15431+P62813); GABA current potentiation, positive modulator, two-electrode voltage clamp; Xenopus oocytes expressing α1β1; together with: GABA EC3-7).
`CSCC[C@H](NC(=O)[C@H](Cc1c[nH]c2ccccc12)NC(=O)CNC(=O)[C@H](Cc1ccc(O)cc1)NC(=O)[C@H](C)NC(=O)[C@H](CCC(=O)O)NC(=O)[C@H](CCC(=O)O)NC(=O)[C@H](CCC(=O)O)NC(=O)[C@H](CCC(=O)O)NC(=O)[C@H](CCC(=O)O)NC(=O)[C@@H](CCC(=O)O)NC(=O)CNC(=O)C(CNCCN)CNCCN)C(=O)N[C@@H](CC(=O)O)C(=O)N[C@@H](Cc1ccccc1)C(N)=O` gave an EC50 of 7.9e-05 µM (Gastrin/cholecystokinin type B receptor (CCKBR, Homo sapiens, UniProt P32239); calcium signal, agonist).

Some of these lines once more:
For `CCc1nc(-c2ccc(-c3ccc(CCC(N)(CO)COP(=O)(O)O)cc3)cc2)co1` (stereo not drawn), the EC50 was greater than 5 µM (S1PR2; β-arrestin recruitment, agonist).
With `N#CCCN1CCN(C(=S)c2ccc(-c3cccc(C(F)(F)F)c3)o2)CC1` the EC50 was 1.53 µM (NPR2; cGMP production, positive allosteric modulator, cGMP HTRF; HEK293 expressing human GC-B; together with: CNP at EC30).
